Measured values gathered from unrelated publications.
± marks the error that the study gave. Converted amounts (≈) assume the structure as drawn.

Compound | tested on | assay | system | conditions | scale | measurement | result
CCCCCCCCCCOCc1cn(CC2=CC[C@@H]3C(C(=O)OC)=CO[C@@H](OC(C)=O)[C@H]23)nn1 | SK-N-SH | neuroprotection, MTT | – | 0.3 µM, 24 h, with: 250 µM H2O2 | – | viability | 60.8 ± 0.6%
Cl.Cl.Cl.Cl.Cl.Cl.Cl.Cl.Cl.Cl.Cl.Cl.NC[C@@H]1O[C@H](O[C@H]2[C@@H](O)[C@H](O[C@@H]3[C@@H](O)[C@H](N)C[C@H](N)[C@H]3O[C@H]3O[C@H](CN)[C@@H](O)[C@H](O)[C@H]3N)O[C@@H]2Cn2cc(CCCCCCc3cn(C[C@H]4O[C@@H](O[C@@H]5[C@@H](O)[C@H](N)C[C@H](N)[C@H]5O[C@H]5O[C@H](CN)[C@@H](O)[C@H](O)[C@H]5N)[C@H](O)[C@@H]4O[C@H]4O[C@@H](CN)[C@@H](O)[C@H](O)[C@H]4N)nn3)nn2)[C@H](N)[C@@H](O)[C@@H]1O | HIV-1 | reverse transcriptase release | MT-2, NL4-3 | concentration not given, day 4 | baseline: virus control | protection | 90%
CC[C@H](C)[C@H](NC(=O)[C@H](Cc1ccccc1)NC(=O)[C@H](CCC(=O)O)NC(=O)[C@H](CCCCNC(=O)COCC(=O)NCCCOCCOCCOCCCNC(=O)CNC(=O)[C@@H]1CCCN1C(=O)CNC(=O)[C@@H]1CCCN1C(=O)CNC(=O)[C@@H]1CCCN1C(=O)[C@H](CCCCNC(=O)CN(CCN(CCN(CC(=O)O)CC(=O)O)CC(=O)O)CC(=O)O)NC(=O)COCC(=O)NCCCOCCOCCOCCCNC(=O)COCC(=O)NCCOc1ccc(Cl)cc1C(=O)NCCc1ccc(S(=O)(=O)NC(=O)NC2CCCCC2)cc1)NC(=O)[C@H](C)NC(=O)[C@H](C)NC(=O)[C@H](CCC(N)=O)NC(=O)CNC(=O)[C@H](CCC(=O)O)NC(=O)[C@H](CC(C)C)NC(=O)[C@H](Cc1ccc(O)cc1)NC(=O)[C@H](CO)NC(=O)[C@H](CO)NC(=O)[C@@H](NC(=O)[C@H](CC(=O)O)NC(=O)[C@H](CO)NC(=O)[C@@H](NC(=O)[C@H](Cc1ccccc1)NC(=O)[C@@H](NC(=O)CNC(=O)[C@H](CCC(=O)O)NC(=O)[C@H](C)NC(=O)[C@@H](N)Cc1c[nH]cn1)[C@@H](C)O)[C@@H](C)O)C(C)C)C(=O)N[C@@H](C)C(=O)N[C@@H](Cc1c[nH]c2ccccc12)C(=O)N[C@@H](CC(C)C)C(=O)N[C@H](C(=O)N[C@@H](CCCNC(=N)N)C(=O)NCC(=O)N[C@@H](CCCNC(=N)N)C(=O)NCC(N)=O)C(C)C | GLP-1R and SUR1 | saturation binding, time-resolved fluorescence | βTC3 | monovalent mode, GLP-1 domain | – | binding concentration, upper limit | > 30 nM
COCO[C@H]1[C@H](O)[C@@H](N)[C@@H](O[C@H]2[C@H](O[C@@H]3O[C@H](CO)[C@@H](O[C@H]4O[C@@H](CN)[C@@H](O)[C@H](O)[C@H]4N)[C@H]3O)[C@@H](O)[C@H](N)C[C@@H]2N)O[C@@H]1CO | Mycobacterium smegmatis ribosome A1408G | translation, cell-free luciferase synthesis | – | – | – | IC50 | 4.48 ± 0.32 mg/L
NC(=O)OC[C@H](N)Cc1ccccc1 | – | microdialysis | rat, nucleus accumbens | oral, 100 mg/kg, 1.5 h | baseline: basal | AUC of extracellular dopamine | 123%
CCCCCCCCC(=O)NCc1ccc(O)c(OC)c1 | mAb 3-LD3 | antibody binding, indirect competitive ELISA | – | with: coating antigen hapten 2-OVA | – | IC50 | 0.00173 mg/L
CC(C)CC(O)(CC(C)C)c1cn(C(=O)N2CCCC2)nn1 | mouse T-cells | SILAC proteomics, item: S100A4 | – | 1 nM, 6 h, unit not given | baseline: DMSO | protein level | 1.01 ± 0.12
CCCCCCCCOCc1cn(CC2=CC[C@@H]3C(C(=O)OC)=CO[C@@H](OC(C)=O)[C@H]23)nn1 | SK-N-SH | neuroprotection, MTT | – | 0.6 µM, 24 h, with: 250 µM H2O2 | – | viability | 74.4 ± 0.6%
NC[C@@H]1O[C@H](O[C@H]2[C@@H](O)[C@H](O[C@@H]3[C@@H](O)[C@H](N)C[C@H](N)[C@H]3O[C@H]3O[C@H](CO)[C@@H](OCCO)[C@H](O)[C@H]3N)O[C@@H]2CO)[C@H](N)[C@@H](O)[C@@H]1O | ribosome with mitochondrial A site | luciferase translation, cell-free translation | – | – | – | IC50 | 87.5 ± 31 mg/L
COC(=O)C1=CO[C@@H](OC(C)=O)[C@@H]2C(Cn3cc(C4(O)CCCC4)nn3)=CC[C@H]12 | SK-N-SH | neuroprotection, MTT | – | 0.15 µM, 24 h, with: 250 µM H2O2 | – | viability | 58.1 ± 1.1%
C[C@@](O)(C(F)F)[C@H](NC(=O)c1ccc(C#CC#CC2CC2)cc1)C(=O)NO | Citrobacter freundii | agar dilution | ESBL and carbapenemase producers | – | – | MIC50 | 0.032 µg/mL (≈ 0.085 µM)
COC(=O)C1=CO[C@@H](OC(C)=O)[C@@H]2C(Cn3cc(CCCO)nn3)=CC[C@H]12 | SK-N-SH | neuroprotection, MTT | – | 0.075 µM, 24 h, with: 250 µM H2O2 | – | viability | 78.8 ± 0.4%
CCn1c2ccccc2c2cc(C(=O)c3ccc(C)c4ccccc34)ccc21 | – | tubulin polymerisation, inhibitor, absorbance | – | – | – | IC50 | 1600 nM

Repeated from above:
Compound | tested on | assay | system | conditions | scale | measurement | result
CCCCCCCCOCc1cn(CC2=CC[C@@H]3C(C(=O)OC)=CO[C@@H](OC(C)=O)[C@H]23)nn1 | SK-N-SH | neuroprotection, MTT | – | 0.6 µM, 24 h, with: 250 µM H2O2 | – | viability | 74.4 ± 0.6%
